Assay results of several laboratories.
Compare with care: the assays were run in different laboratories. “And” joins repeats or separate records; there may be more than shown.

SMILES | cell line | test | setting | scale | quantity | value
COc1ccccc1-c1ccncc1C(=O)Nc1nnc(OCc2ccc(Cl)cc2)s1 | MDA-MB-436 | – | 3 µM | – | colony count | 13 and 8.5
CC(C)c1ccc(N(C)c2ccc3c(c2)OCC[C@H]3CNc2cnccc2C(=O)O)cc1 | KYSE-150 | apoptosis, measured: caspase-3/7 | 72 h | reference: panobinostat | EC50 | 33 nM
Cn1ncc2cc(-c3cncc(Cl)c3N3CCC4(CCNC4=O)CC3)ccc21 | LS174T | gene expression, microarray, measured: HDAC2 mRNA | concentration not given, 4 h | reference: untreated cells | log2 fold change | 1.4
CNS(=O)(=O)Nc1nccc(Cc2c(C)c3ccc(Oc4ncccc4F)cc3oc2=O)c1F | GP2d | cell viability | 7 days | – | IC50 | 1.46 nM
CO[C@@H]1[C@@H](OC(N)=O)[C@@H](O)[C@H](Oc2ccc3c(O)c(NC(=O)c4ccc(O)c(CC=C(C)C)c4)c(=O)oc3c2C)OC1(C)C | HCT-116 parental | – | 75 µM, replicate 1 | – | colony count | 19
CN1CCCNC(=O)c2cccc(c2)C(=O)NCCCN(C)CCCNc2cccc3c2C(=O)c2cccc(c2C3=O)NCCC1 | SAS | RNA-Seq, measured: DIMT1 mRNA | 1 µM, 6 h | reference: untreated cells | log2 fold change | -0.68
Cc1ncsc1-c1ccc(C(C)NC(=O)C2CC(O)CN2C(=O)C(NC(=O)CCCCCCCCCCN2CCCC(Nc3ncc(Cl)c(Nc4ccccc4S(=O)(=O)C(C)C)n3)C2)C(C)(C)C)cc1 (centres unmarked) | 22Rv1 | RNA-seq, measured: ZNF510 mRNA | concentration not given | reference: DMSO | log2 fold change | -1.33
CCN(CC)CC(=O)Nc1cccc(-n2cc(-c3ccc4ccc(-c5cn(-c6cccc(NC(=O)CN(CC)CC)c6)nn5)cc4c3)nn2)c1 | RCC4 | PCR angiogenesis array, measured: TEK | 5 x IC50, 6 h, normoxia | reference: untreated | fold regulation | -1.53 fold
